Measurements pooled from the literature.
Every numbered part comes from another study and shows a few of its results, in no order. “And” joins repeats or separate records; there may be more than shown.

Study 1
Structure (SMILES): C[C@@H]1CN(c2ccc(-c3cc(C(=O)NCCOCCOCCOCCOCCNC(=O)Cn4cc(-c5[nH]cc(C(=O)N[C@@H](CC(N)=O)c6ccc(F)c(Cl)c6)c5-c5ccc(Cl)cc5F)cn4)ccc3F)cc2NC(=O)c2c[nH]c(=O)cc2C(F)(F)F)C[C@H](C)N1C
Mode: degrader
Time: 24 h
WDR5: WD repeat-containing protein 5 (WDR5, Homo sapiens, UniProt P61964)
WDR5/DCAF1: WDR5/DCAF1 (Homo sapiens, UniProt P61964+Q9Y4B6)
| target | technique | measured | tested at | baseline | remaining protein level |
| --- | --- | --- | --- | --- | --- |
| WDR5 | Jess capillary immunoassay | WDR5 over vinculin | 25.7 nM | DMSO | 108% and 118% and 92.5% |
| WDR5/DCAF1 | HiBiT luminescence | – | 1510 nM | – | 60% and 60.5% and 55.9% |
| WDR5/DCAF1 | HiBiT luminescence | – | 34.2 nM | – | 97.6% and 88.4% and 87.5% |
| WDR5 | Jess capillary immunoassay | WDR5 over vinculin | 11 nM | DMSO | 97.5% and 102% and 117% |
| WDR5/DCAF1 | HiBiT luminescence | – | 10000 nM | – | 74.2% and 88.3% and 76.8% |
| WDR5 | Jess capillary immunoassay | WDR5 over vinculin | 4.69 nM | DMSO | 91.8% and 109% and 127% |
| WDR5 | Jess capillary immunoassay | WDR5 over vinculin | 331 nM | DMSO | 71.6% and 87.4% and 103% |

Study 2
Compound: CCS(=O)(=O)c1cc2cc(C[C@@](O)(CC(C)(C)c3ccc(F)cc3C(N)=O)C(F)(F)F)[nH]c2cn1
Technique: competition with immobilised ligand
Tested at: 1 µM
| target | read-out | remaining binding |
| --- | --- | --- |
| Tyrosine-protein kinase Fer (FER, Homo sapiens, UniProt P16591) | cell-free assay | 74% |
| Tyrosine-protein kinase ABL1, phosphorylated (ABL1, Homo sapiens, UniProt P00519, Q252H) | cell-free assay | 92% |
| Serine/threonine-protein kinase RIO3 (RIOK3, Homo sapiens, UniProt O14730) | cell-free assay | 74% |
| LIM domain kinase 1 (LIMK1, Homo sapiens, UniProt P53667) | cell-free assay | 100% |
| G protein-coupled receptor kinase 3 (GRK3, Homo sapiens, UniProt P35626) | cell-free assay | 73% |
| Serine/threonine-protein kinase pim-3 (PIM3, Homo sapiens, UniProt Q86V86) | cell-free assay | 100% |
| Tyrosine-protein kinase receptor Tie-1 (TIE1, Homo sapiens, UniProt P35590) | cell-free assay | 66% |
| Serine/threonine-protein kinase MRCK beta (CDC42BPB, Homo sapiens, UniProt Q9Y5S2) | cell-free assay | 99% |
| Cyclin-dependent kinase 4 (CDK4, Homo sapiens, UniProt P11802) | cell-free assay | 81% |
| Proto-oncogene tyrosine-protein kinase receptor Ret (RET, Homo sapiens, UniProt P07949) | cell-free assay | 100% |
| Serine/threonine-protein kinase STK11 (STK11, Homo sapiens, UniProt Q15831) | cell-free assay | 100% |
| Mast/stem cell growth factor receptor Kit (KIT, Homo sapiens, UniProt P10721) | cell-free assay | 100% |
| Serine/threonine-protein kinase 24 (STK24, Homo sapiens, UniProt Q9Y6E0) | cell-free assay | 0% |
| Tyrosine-protein kinase ABL1, phosphorylated (ABL1, Homo sapiens, UniProt P00519, M351T) | cell-free assay | 96% |
| Ankyrin repeat and protein kinase domain-containing protein 1 (ANKK1, Homo sapiens, UniProt Q8NFD2) | cell-free assay | 70% |
| Transient receptor potential cation channel subfamily M member 6 (TRPM6, Homo sapiens, UniProt Q9BX84) | cell-free assay | 72% |
| Dual specificity tyrosine-phosphorylation-regulated kinase 1B (DYRK1B, Homo sapiens, UniProt Q9Y463) | cell-free assay | 100% |
| Ribosomal protein S6 kinase alpha-2, C-terminal kinase domain (RPS6KA2, Homo sapiens, UniProt Q15349) | cell-free assay | 0% |
| Serine/threonine-protein kinase Nek4 (NEK4, Homo sapiens, UniProt P51957) | cell-free assay | 91% |
| Tyrosine-protein kinase ABL1, phosphorylated (ABL1, Homo sapiens, UniProt P00519, E255K) | binding | 90% |
| LIM domain kinase 2 (LIMK2, Homo sapiens, UniProt P53671) | cell-free assay | 100% |
| Beta-adrenergic receptor kinase 1 (GRK2, Homo sapiens, UniProt P25098) | cell-free assay | 50% |
| Testis-specific serine/threonine-protein kinase 1 (TSSK1B, Homo sapiens, UniProt Q9BXA7) | cell-free assay | 96% |
| Mitogen-activated protein kinase kinase kinase 11 (MAP3K11, Homo sapiens, UniProt Q16584) | cell-free assay | 92% |

Study 3
Organism: Sarcocystis neurona
Read-out: parasite growth
Tested at: 10 µM
| SMILES | inhibition |
| --- | --- |
| CC(C)n1c(/C=C/C(O)CC(O)CC(=O)O)c(-c2ccc(F)cc2)c2ccccc21 (centres unmarked) | -21.6% |
| C[C@@H](c1ncncc1F)[C@](O)(Cn1cncn1)c1ccc(F)cc1F | -21.7% |
| O=C(O)COCCN1CCN([C@H](c2ccccc2)c2ccc(Cl)cc2)CC1 | -29.3% |
| O=C(c1ccc(F)cc1)C1CCN(CCn2c(=S)[nH]c3ccccc3c2=O)CC1 | 81.9% |
| CC(C)(O)c1ccccc1CC[C@@H](SCC1(CC(=O)O)CC1)c1cccc(/C=C/c2ccc3ccc(Cl)cc3n2)c1 | -29.7% |
| CCCc1nc2c(C)cc(-c3nc4ccccc4n3C)cc2n1Cc1ccc(-c2ccccc2C(=O)O)cc1 | 10% |
| COCCCOc1ccnc(C[S+]([O-])c2nc3ccccc3[nH]2)c1C (centres unmarked) | -36.4% |
| Cc1c(C(=O)NN2CCCCC2)nn(-c2ccc(Cl)cc2Cl)c1-c1ccc(I)cc1 | 96.7% |
| CCC(=O)O[C@]1(C(=O)CCl)[C@@H](C)C[C@H]2[C@@H]3CCC4=CC(=O)C=C[C@]4(C)[C@@]3(F)[C@@H](O)C[C@@]21C | 5.5% |
| CC(C)OC(=O)CCC/C=C\C[C@@H]1[C@@H](CC[C@@H](O)CCc2ccccc2)[C@H](O)C[C@@H]1O | -19.8% |
| CC(C)(C)NCC(O)c1ccc(O)c(CO)c1.CC(C)(C)NCC(O)c1ccc(O)c(CO)c1.O=S(=O)(O)O (centres unmarked) | -20.4% |
| CC(=O)[C@H]1CC[C@H]2[C@@H]3CCC4=CC(=O)CC[C@]4(C)[C@H]3CC[C@]12C | 8.4% |

Study 4
Target: Diamine acetyltransferase 1 (Homo sapiens, UniProt P21673)
Mode: inhibitor
Tested at: 10 µM
Baseline: control
Residues (P21673 1-171): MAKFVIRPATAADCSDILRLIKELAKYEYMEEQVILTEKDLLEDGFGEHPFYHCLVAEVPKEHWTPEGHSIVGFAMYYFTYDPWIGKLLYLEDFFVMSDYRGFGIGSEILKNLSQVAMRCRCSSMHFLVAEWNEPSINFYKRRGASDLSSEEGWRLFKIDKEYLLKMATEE
| SMILES | remaining activity |
| --- | --- |
| O=C1c2c(O)cc(O)cc2O[C@H](c2ccc(O)cc2)[C@H]1O | 105% |
| CC(C)=CCc1cc(-c2coc3cc(O)cc(O)c3c2=O)cc(O)c1O | 112% |
| N[C@@H](CCC(=O)O)C(=O)O | 100% |
| C[C@@H]1O[C@@H](O[C@H]2[C@H](OC(=O)[C@]34CCC(C)(C)C[C@H]3C3=CC[C@@H]5[C@@]6(C)C[C@H](O)[C@H](O[C@@H]7O[C@H](CO)[C@@H](O)[C@H](O)[C@H]7O)C(CO)(CO)[C@@H]6CC[C@@]5(C)[C@]3(C)C[C@H]4O)OC[C@H](O)[C@@H]2O)[C@H](O)[C@H](O)[C@H]1O[C@@H]1OC[C@@H](O)[C@H](O[C@@H]2OC[C@](O)(CO)[C@H]2O)[C@H]1O | 101% |
| O=Cc1ccc(O)c(O)c1 | 94.9% |
| C[C@]12CC[C@@H]3c4ccc(O)cc4CC[C@H]3[C@@H]1CCC2=O | 107% |
| COC(=O)[C@]1(O)C[C@@H](O)[C@@H](O)[C@H](OC(=O)/C=C/c2ccc(O)c(O)c2)C1 | 102% |
| C[N+](C)(C)CC(=O)O | 98.1% |
| COC(=O)c1cc(O)c(O)c(O)c1 | 105% |
| O=c1cc(-c2ccc(O)cc2)oc2cc(O)ccc12 | 89.9% |
| O=C1CCCCCCCCCCCCCC1 | 108% |
| C[C@H]1[C@H](C)CC[C@]2(C)CC[C@]3(C)C(=CC[C@@H]4[C@@]5(C)CC[C@H](O)C(C)(C)[C@@H]5CC[C@]43C)[C@H]12 | 120% |
| O=C(/C=C/c1ccc(O)cc1)NCCc1ccc(O)cc1 | 82% |

For quick reference, copied from above (study 2):
| target | read-out | remaining binding |
| --- | --- | --- |
| Serine/threonine-protein kinase 24 (STK24, Homo sapiens, UniProt Q9Y6E0) | cell-free assay | 0% |
| Tyrosine-protein kinase ABL1, phosphorylated (ABL1, Homo sapiens, UniProt P00519, M351T) | cell-free assay | 96% |
| Ankyrin repeat and protein kinase domain-containing protein 1 (ANKK1, Homo sapiens, UniProt Q8NFD2) | cell-free assay | 70% |
| Transient receptor potential cation channel subfamily M member 6 (TRPM6, Homo sapiens, UniProt Q9BX84) | cell-free assay | 72% |
| Dual specificity tyrosine-phosphorylation-regulated kinase 1B (DYRK1B, Homo sapiens, UniProt Q9Y463) | cell-free assay | 100% |
